Results pooled from the literature.
Parts stem from different laboratories: compare values within a part only.

Sample 1
Target: Prothrombin, mature alpha-thrombin (F2, Homo sapiens, UniProt P00734)
Method: aptamer microarray, sandwich
Molecule type: DNA with 2'F-ANA
Matrix: in vitro
Concentration: 200 nM
Notes: whole 15-mer aptamer, many near background
Together with: Cy3 exosite-II aptamer, 400 nM
Direction: higher = stronger binding
Quantity: mean fluorescence intensity
GGTTGGTGTGGTTGG (2'F-ANA at 4 5 11 15): 93.4 a.u.
GGTTGGTGTGGTTGG (2'F-ANA at 2 3 8 11 13 15): 740 a.u.
GGTTGGTGTGGTTGG (2'F-ANA at 1 2 4 5 6 7 9 13 14 15): 47.5 a.u.
GGTTGGTGTGGTTGG (2'F-ANA at 1 2 3 5 9 10 12 13 14): 48.4 a.u.

Sample 2
Target: Interferon regulatory factor 3, full length, phosphomimetic (IRF3, Homo sapiens, UniProt Q14653, residues 1-427, S386D/S396D/S398D/S402D/T404D/S405D)
Method: protein-binding microarray
Molecule type: double-stranded DNA, one strand shown
Matrix: in vitro
Concentration: 2540 nM top
Notes: 60-bp whole probe
Together with: salmon DNA 0.4 mg/ml
Baseline: random background probes
Direction: higher = stronger binding
Quantity: fitted relative affinity
Target sequence (chain): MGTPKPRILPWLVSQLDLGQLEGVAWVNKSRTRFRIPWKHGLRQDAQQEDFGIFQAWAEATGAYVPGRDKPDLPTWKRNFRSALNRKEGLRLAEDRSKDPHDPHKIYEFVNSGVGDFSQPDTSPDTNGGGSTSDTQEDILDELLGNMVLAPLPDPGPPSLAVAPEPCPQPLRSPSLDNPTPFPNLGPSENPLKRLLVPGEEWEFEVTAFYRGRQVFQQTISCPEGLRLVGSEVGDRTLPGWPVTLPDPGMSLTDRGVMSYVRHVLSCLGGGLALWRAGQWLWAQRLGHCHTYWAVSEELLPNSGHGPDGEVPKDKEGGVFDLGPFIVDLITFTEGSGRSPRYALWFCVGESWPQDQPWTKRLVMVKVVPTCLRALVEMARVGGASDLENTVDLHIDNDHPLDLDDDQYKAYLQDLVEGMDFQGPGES
GCCTAGCACTTACGTTTCGGTTCCGGTTAGTGCTAGGTCTTGATTCGCTTGACGCTGCTG: 9.22 z-score
GCCTAGCACCATCCTGAGTCAAGTCAAGTGTGCTAGGTCTTGATTCGCTTGACGCTGCTG: 1.18 z-score
GCCTAGCACTCACCTCTGCATTCCCTACTGTGCTAGGTCTTGATTCGCTTGACGCTGCTG: 0.62 z-score

Sample 3
Target: Histone acetyltransferase KAT6A, both winged helices, GST fusion (KAT6A, Homo sapiens, UniProt Q92794, residues 1-181)
Method: protein binding microarray
Molecule type: double-stranded DNA, one strand shown
Matrix: in vitro
Concentration: not given
Notes: 8-mer, flanks averaged, mean of 2 arrays, mostly near background
Baseline: not given
Direction: higher = stronger binding
Quantity: E-score
Target sequence (chain): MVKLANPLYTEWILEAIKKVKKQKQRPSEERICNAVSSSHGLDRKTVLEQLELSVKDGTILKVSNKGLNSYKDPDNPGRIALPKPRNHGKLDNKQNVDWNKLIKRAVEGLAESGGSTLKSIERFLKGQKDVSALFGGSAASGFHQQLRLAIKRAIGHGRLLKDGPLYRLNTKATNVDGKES
AAATGTTC: -0.0925
GATGAATA: -0.0674
ACCGCCGA: 0.261
CGCCGAAC: 0.283
CTGTTGAA: -0.0566

Mixed results
PhoQ, residues 284 288 289 292 302 303 AANNSF — fold induction (PhoP, residues 12 14 15 18 19 LYHSL (Escherichia coli, UniProt P23836); Sort-seq, item: YFP reporter; E. coli; PhoQ-PhoP variant library, together with: 10 µM Mg2+; baseline: high Mg2+ state, higher = stronger signaling): 21.4

Excerpt of the above (sample 3):
AAATGTTC: -0.0925
GATGAATA: -0.0674
